# Published values gathered from unrelated publications.
# Method: steady-state kinetics
# B1: enzyme N1029G (Limosilactobacillus reuteri, UniProt Q5SBN3); chain INGQQYYIDPTTGQPRKNFLLQNGNDWIYFDKDTGAGTNALKLQFDKGTISADEQYRRGNEAYSYDDKSIENVNGYLTADTWYRPKQILKDGTTWTDSKETDMRPILMVWWPNTVTQAYYLNYMKQYGNLLPASLPSFSTDADSAELNHYSELVQQNIEKRISETGSTDWLRTLMHEFVTKNSMWNKDSENVDYGGLQLQGGFLKYVNSDLTKYANSDWRLMNRTATNIDGKNYGGAEFLLANDIDNSNPVVQAEELNWLYYLMNFGTITGNNPEANFDGIRVDAVDGVDVDLLSIARDYFNAAYNMEQSDASANKHINILEDWGWDDPAYVNKIGNPQLTMDDRLRNAIMDTLSGAPDKNQALNKLITQSLVNRANDNTENAVIPSYNFVRAHDSNAQDQIRQAIQAATGKPYGEFNLDDEKKGMEAYINDQNSTNKKWNLYNMPSAYTILLTNKDSVPRVYYGDLYQDGGQYMEHKTRYFDTITNLLKTRVKYVAGGQTMSVDKNGILTNVRFGKGAMNATDTGTDETRTEGIGVVISNNTNLKLNDGESVVLHMGAAHKNQKYRAVILTTEDGVKNYTNDTDAPVAYTDANGDLHFTNTNLDGQQYTAVRGYANPDVTGYLAVWVPAGAADDQDARTAPSDEAHTTKTAYRSNAALDSNVIYEGFSNFIYWPTTESERTNVRIAQNADLFKSWGITTFELAPQYNSSKDGTFLDSIIDNGYAFTDRYDLGMSTPNKYGSDEDLRNALQALHKAGLQAIADWVPDQIYNLPGKEAVTVTRSDDHGTTWEVSPIKNVVYITNTIGGGEYQKKYGGEFLDTLQKEYPQLFSQVYPVTQTTIDPSVKIKEWSAKYFNGTNILHRGAGYVLRSNDGKYYNLGTSTQQFLPSQLSVQDNEGYGFVKEGNNYHYYDENKQMVKDAFIQDSVGNWYYFDKNGNMVANQSPVEISSNGASGTYLFLNNGTSFRSGLVKTDAGTYYYDGDGRMVRNQTVSDGAMTYVLDENGKLVSESFDSSATEAHPLKPGDLNGQK
# B2: enzyme (Homo sapiens, UniProt Q9NR63); chain MLFEGLDLVSALATLAACLVSVTLLLAVSQQLWQLRWAATRDKSCKLPIPKGSMGFPLIGETGHWLLQGSGFQSSRREKYGNVFKTHLLGRPLIRVTGAENVRKILMGEHHLVSTEWPRSTRMLLGPNTVSNSIGDIHRNKRKVFSKIFSHEALESYLPKIQLVIQDTLRAWSSHPEAINVYQEAQKLTFRMAIRVLLGFSIPEEDLGHLFEVYQQFVDNVFSLPVDLPFSGYRRGIQARQILQKGLEKAIREKLQCTQGKDYLDALDLLIESSKEHGKEMTMQELKDGTLELIFAAYATTASASTSLIMQLLKHPTVLEKLRDELRAHGILHSGGCPCEGTLRLDTLSGLRYLDCVIKEVMRLFTPISGGYRTVLQTFELDGFQIPKGWSVMYSIRDTHDTAPVFKDVNVFDPDRFSQARSEDKDGRFHYLPFGGGVRTCLGKHLAKLFLKVLAVELASTSRFELATRTFPRITLVPVLHPVDGLSVKFFGLDSNQNEILPETEAMLSATV
# B3: enzyme E217L/L163H/N249W (Thermobifida fusca, UniProt Q47RK4); chain MTDVYILDAVRTPFGRYGGALSGIRPDDLAAHVLRALAERSPGLDPAAVDDVFFGDANGAGEDNRNVARMAALLAGWPTSVPGVTLNRLCGSGMESVIAANRAIAVGDASLAVAGGVESMSRAPWVLPKPAQGFPTGHETLYSTTLGWRMVNPAMPEQWTVSHGESTEQVAATYGISRAEQDAFALRSHERAARAWAEGVFDAEITQIPGAELERDLSIRETSAEKLAALKPAFRPDGTITAGNASPLWDGAAALLIGDAAAAERVGREPLARIVSRGVAAVDPDVFGIGPVQAAEIALRRAGIGWDDLSVVELNEAFAAQSLACLKLWPDLDPEIVNPNGGAIAIGHPLGASGARIVGTLAHELHRRGGGWGLAAICIGVGQGLAVVLHR
# B4: protein (Rhodopseudomonas palustris, UniProt Q6N3R9); chain MSNVRVLATDLAFPEGPVVMPDGSVVLVEIRAQQLTRVWPDGRKEVVAKVPGGPNGAALGPDGKMYICNNGGFGWFPSRGTMMPGAPAPHEYIGGSIQRVDLQSGEVETLFDKCGEHPLKGPNDLVFDKHGGLWFTDLGKRRARDMDVGAAYYIKPGMTEITEQVFGTLPLNGIGLSPDEATMYAAETPTGRLWAFDLSGPGEVKPRDVIYRGEKGKPICGLGGYQMFDSLAVEASGNVCVATLVSGCISVIAPDGTLVEQVPTGDRVTTNIAFGGPDLKTAYITLSGKGELIAMDWSRPGLPLNFLNK
# B5: protein F432L (Streptomyces toyocaensis, UniProt Q8KLK7); chain MTTVLPPLEDTDGLWAALTEAAASVEKLLATLPEHGARSSAERAEIAAAHDAARALRVRFLDTHADAVYDRLTDHRRVHLRLAELVEAAATAFPGLVPTQQQLAVERSLPQAAKEGHEIDQGIFLRAVLRSPLAGPHLLDAMLRPTPRALELLPEFVRTGEVEMEAVHLERRDGVARLTMCRDDRLNAEDGQQVDDMETAVDLALLDPGVRVGLLRGGVMSHPRYRGKRVFSAGINLKYLSQGGISLVDFLMRRELGYIHKLVRGVLTNDDRPGWWHSPRIEKPWVAAVDGFAIGGGAQLLLVFDRVLASSDAYFSLPAAKEGIIPGAANLRLGRFAGPRVSRQVILEGRRIWAKEPEARLLVDEVVEPDELDAAIERSLTRLDGDAVLANRRMLNLADESPDGFRAYMAEFALMQALRLYGHDVIDKVGRLGGRPPA
# B6: enzyme H376D (Acetivibrio thermocellus, UniProt A3DJ38); chain MKLTIPELSLVVLIGSSGSGKSTFAKKHFKPTEVISSDFCRGLVSDDENDQTVTGAAFDVLHYIVSKRLQLGKLTVVDATNVQESARKPLIEIAKDYHCFPVAVVFNLPEKVCQERNKNRTDRQVEEYVIRKHTQQLKKSIKGLQREGFRYVYILNSPEEVEEVVFERQPLWNNKKDEHGPFDIIGDIHGCYDELKMLLEKLGYLIEEVEGGVGSGKYRVTHPEGRKVLFLGDLVDRGPKITEVLKLVMGMVKSGIALCVPGNHDVKLLRKLNGRDVQITHGLDRTLEQLAKEPQEFIEEVKAFIDGLVSHYVLDDGKLVVAHAGMKEEFQGRGSGKVREFALYGETTGETDEYGLPVRYDWASDYRGKALVVYGDTPQAEVLKVNNTINIDTGCVFGGKLTAYRYPEREIVDVKALKTYYEPAKPFLPKEDMAERFEARTDNDILDINDVLGKKIITTRLMSSITIHEENSIAALEVMSRFAADPHWLIYLPPTMSPCETSKKEGMLEHPIEAFEYFRTRGVGKVVCEQKHMGSRAVVIVCKDSQVAEKRFGVLDGTAGICYTRTGRHFFDDMQLEAELIDRVRKVLDKSGFWGDFNTDWVCLDCELMPWSAKAQKLLEEQYSAVGISGRVVLDEAVKLLKQASLNKTVSFDVSRQTSGKNADINELLQRFTERSEMMQKYVEAYRKYCWPVNSIDDLKLAPFHILATEGKVHSDKNHIWHMDTIAKYCTQDDSLIMATNHILVDVTDAESVDKGIKWWEDLTASGGEGMVVKPYDFIVKNGRELLQPAVKCRGREYLRIIYGPEYTMDENIERLRNRAVGKKRSLALREFSLGMEALERFVRNEPLYRVHECVFGVLALESEPVDPRL
# B7: TcC (Trypanosoma cruzi, UniProt Q4DGA3); chain MPREYEFAEKILFTEEEIRTRIMEVAKRIADDYKGKGLRPYVNPLVLISVLKGSFMFTADLCRALSDFNVPVRMEFICVSSYGEGVTSSGQVRMLLDTRHSIEGHHVLIVEDIVDTALTLNYLYHMYFTRRPASLKTVVLLDKREGRRVPFSADYVVANIPNAFVIGYGLDYDDTYRELRDIVVLRPEVYAEREAARQKKQRAIGSADTDRDAKREFHSKY
# B8: enzyme (Acinetobacter baumannii, UniProt A0A334FGR6); chain MKELIIVGAGGHGNEISWLAKRCGRVVRGFLDNTVEKQGTFIRDIPVLGTLDECSKFTDCDFVIAIGSPRARKKIIEHFFPEGEFTFATLIDPTATIGENIHIEEGTMICAGGILTVDVKLGKHCIVNTNAVLSHGVILGDYVTVAPNASISGDVSLGNIVEIGANATIREKVSVQDGAMVGMGSVVIRNILSNQVVVGNPAKLLKVIE
# B9: UGT84B1 (Arabidopsis thaliana, UniProt O22182); chain MGSSEGQETHVLMVTLPFQGHINPMLKLAKHLSLSSKNLHINLATIESARDLLSTVEKPRYPVDLVFFSDGLPKEDPKAPETLLKSLNKVGAMNLSKIIEEKRYSCIISSPFTPWVPAVAASHNISCAILWIQACGAYSVYYRYYMKTNSFPDLEDLNQTVELPALPLLEVRDLPSFMLPSGGAHFYNLMAEFADCLRYVKWVLVNSFYELESEIIESMADLKPVIPIGPLVSPFLLGDGEEETLDGKNLDFCKSDDCCMEWLDKQARSSVVYISFGSMLETLENQVETIAKALKNRGLPFLWVIRPKEKAQNVAVLQEMVKEGQGVVLEWSPQEKILSHEAISCFVTHCGWNSTMETVVAGVPVVAYPSWTDQPIDARLLVDVFGIGVRMRNDSVDGELKVEEVERCIEAVTEGPAAVDIRRRAAELKRVARLALAPGGSSTRNLDLFISDITIA
# B10: enzyme (Drosophila melanogaster, UniProt P82890); chain MVRKVLMICLGNICRSPIAEVVMVDTLEKANVKDVEVDSAAIGGWHVGNRADPRAISTLQKHGLKCTHIVRQIRKQDFSEFDYIFGMDEDNMSELRRLAPKGSKAELLMLGDFGLEKKNRIIEDPYYERGAEGFETAYQQCVVACAAFMKERLQK
# Chain of UniProt P27815 (whole entry, looked up): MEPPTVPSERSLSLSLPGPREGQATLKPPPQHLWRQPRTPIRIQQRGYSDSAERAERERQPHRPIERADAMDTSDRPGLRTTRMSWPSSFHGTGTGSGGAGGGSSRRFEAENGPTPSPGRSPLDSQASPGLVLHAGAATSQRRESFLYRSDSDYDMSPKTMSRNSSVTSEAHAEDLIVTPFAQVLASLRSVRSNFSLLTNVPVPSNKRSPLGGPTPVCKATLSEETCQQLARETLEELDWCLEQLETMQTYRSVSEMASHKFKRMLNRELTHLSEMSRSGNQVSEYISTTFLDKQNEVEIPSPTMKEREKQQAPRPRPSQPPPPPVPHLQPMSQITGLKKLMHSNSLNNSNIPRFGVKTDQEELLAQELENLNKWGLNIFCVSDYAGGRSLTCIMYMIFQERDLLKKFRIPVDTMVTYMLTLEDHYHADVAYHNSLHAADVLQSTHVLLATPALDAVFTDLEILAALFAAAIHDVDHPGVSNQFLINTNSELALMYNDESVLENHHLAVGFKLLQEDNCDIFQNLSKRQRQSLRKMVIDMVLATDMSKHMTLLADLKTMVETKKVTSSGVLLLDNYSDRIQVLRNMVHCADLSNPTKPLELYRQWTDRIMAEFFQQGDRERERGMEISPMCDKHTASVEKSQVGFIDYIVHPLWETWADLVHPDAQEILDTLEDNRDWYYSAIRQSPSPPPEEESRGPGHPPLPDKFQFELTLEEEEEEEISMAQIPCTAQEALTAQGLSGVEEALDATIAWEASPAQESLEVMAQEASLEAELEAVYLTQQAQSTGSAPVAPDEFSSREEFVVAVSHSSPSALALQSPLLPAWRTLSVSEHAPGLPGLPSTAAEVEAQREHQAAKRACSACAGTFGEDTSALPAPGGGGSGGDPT
# Chain of UniProt J7SZ64 (whole entry, looked up): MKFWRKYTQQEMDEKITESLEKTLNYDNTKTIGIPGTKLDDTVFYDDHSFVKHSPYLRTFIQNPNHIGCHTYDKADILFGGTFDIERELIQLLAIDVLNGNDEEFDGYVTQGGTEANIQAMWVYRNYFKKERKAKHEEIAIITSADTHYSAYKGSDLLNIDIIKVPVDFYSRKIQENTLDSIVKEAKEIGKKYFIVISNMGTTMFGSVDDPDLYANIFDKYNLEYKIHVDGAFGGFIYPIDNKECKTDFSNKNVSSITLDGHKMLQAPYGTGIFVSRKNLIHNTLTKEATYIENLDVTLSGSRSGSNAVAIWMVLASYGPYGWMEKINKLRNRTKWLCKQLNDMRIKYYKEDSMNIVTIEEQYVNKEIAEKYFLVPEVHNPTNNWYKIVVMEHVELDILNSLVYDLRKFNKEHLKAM
Substance,substrate,conditions,Km [µM]
"aromatic amino acid decarboxylase (Clostridium sporogenes, UniProt J7SZ64)",N[C@@H](Cc1c[nH]c2c(Cl)cccc12)C(=O)O,"pH 7, 37 °C, not purified, added: PLP 40 µM",4500
"nitrilase (Rhodococcus rhodochrous, UniProt A4LA85)",N#Cc1ccccn1,"pH 7.5, 25 °C",1530
B1 (enzyme N1029G),OC[C@H]1O[C@@](CO)(O[C@H]2O[C@H](CO)[C@@H](O)[C@H](O)[C@H]2O)[C@@H](O)[C@@H]1O,"pH 4.7, 37 °C",2700
B2 (enzyme),CC1=C(/C=C/C(C)=C/C=C/C(C)=C/C(=O)O)C(C)(C)CCC1,"37 °C, not purified",0.0188
"PDE4A (Homo sapiens, UniProt P27815)",Nc1ncnc2c1ncn2[C@@H]1O[C@@H]2COP(=O)(O)O[C@H]2[C@H]1O,"pH 7.5, 21 °C",24
B3 (enzyme E217L/L163H/N249W),CC(C)(COP(=O)(O)OP(=O)(O)OC[C@H]1O[C@@H](n2cnc3c(N)ncnc32)[C@H](O)[C@@H]1OP(=O)(O)O)[C@@H](O)C(=O)NCCC(=O)NCCSC(=O)CC(=O)O,"pH 7.4, 37 °C",2570
B4 (protein),CCCCCCCCOC(C)=O,"pH 8.3, NaCl 150 mM, no saturation, added: CaCl2 1 mM",1250
"gliT (Aspergillus fumigatus, UniProt E9RAH5)",CC(=O)NC1=C(S)/C(=C\S)NC1=O,pH 6.5,198
B5 (protein F432L),CC(C)(COP(=O)(O)OP(=O)(O)OC[C@H]1O[C@@H](n2cnc3c(N)ncnc32)[C@H](O)[C@@H]1OP(=O)(O)O)[C@@H](O)C(=O)NCCC(=O)NCCSC(=O)Cc1cc(O)cc(O)c1,"pH 7.5, 24 °C, added: O2",0.5
ω-transaminase A60V/E38Q/F86L/I154V/M128F/P9A/R417L/S87N/W58M (Pseudomonas jessenii),CCCC(=O)c1ccccc1,"pH 8, 56 °C, apparent, added: isopropylamine 1 M, PLP 0.05 mM",1500
azu N36H/Q28H/Q34H (Pseudomonas aeruginosa),O=NO,pH 6.35,46000
B6 (enzyme H376D),Nc1ncnc2c1ncn2[C@@H]1O[C@H](CO)[C@H]2OP(=O)(O)O[C@H]21,"pH 7.5, 45 °C",3900
B7 (TcC),Oc1ncnc2[nH]ncc12,"pH 8.3, 37 °C, apparent, added: PRPP 1 mM, MgCl2 12 mM",213
B8 (enzyme),Cc1cn([C@H]2C[C@H](O)[C@@H](COP(=O)(O)OP(=O)(O)O[C@H]3O[C@H](C)[C@@H](N)[C@H](O)[C@H]3O)O2)c(=O)[nH]c1=O,pH 7.5,290
B9 (UGT84B1),O=C(O)Cc1ccccc1,"pH 7.5, 30 °C",32.3
B10 (enzyme),O=[N+]([O-])c1ccc(OP(=O)(O)O)cc1,pH 6,520
